Published values of several laboratories.
Each numbered part is a random draw from the data of one study; scales do not carry over between parts. Changes are numbered by the printed parent chain.
UniProt P22607, sequence (whole entry, looked up): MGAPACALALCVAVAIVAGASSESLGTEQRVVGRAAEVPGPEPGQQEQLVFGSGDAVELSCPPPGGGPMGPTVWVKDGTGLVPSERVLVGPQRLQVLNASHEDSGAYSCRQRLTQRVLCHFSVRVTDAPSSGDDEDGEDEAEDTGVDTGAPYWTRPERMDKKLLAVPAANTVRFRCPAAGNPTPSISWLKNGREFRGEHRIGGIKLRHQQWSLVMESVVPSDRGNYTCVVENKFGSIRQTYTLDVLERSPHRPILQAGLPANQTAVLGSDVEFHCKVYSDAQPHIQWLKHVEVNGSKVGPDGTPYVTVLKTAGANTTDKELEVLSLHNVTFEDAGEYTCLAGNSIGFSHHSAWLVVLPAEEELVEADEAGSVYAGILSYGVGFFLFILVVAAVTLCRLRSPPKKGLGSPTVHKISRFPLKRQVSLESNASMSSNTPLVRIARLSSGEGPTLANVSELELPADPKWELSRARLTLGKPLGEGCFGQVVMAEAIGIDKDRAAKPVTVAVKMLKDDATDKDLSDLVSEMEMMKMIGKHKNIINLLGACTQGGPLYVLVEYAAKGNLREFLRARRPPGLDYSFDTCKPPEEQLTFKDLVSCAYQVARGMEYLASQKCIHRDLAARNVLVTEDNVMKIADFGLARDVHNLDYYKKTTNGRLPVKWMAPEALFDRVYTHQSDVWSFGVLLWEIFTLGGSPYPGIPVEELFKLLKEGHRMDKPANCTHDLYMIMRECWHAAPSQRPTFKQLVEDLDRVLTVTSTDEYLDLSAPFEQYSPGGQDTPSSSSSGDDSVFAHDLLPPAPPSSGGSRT
UniProt Q8NE63, sequence (whole entry, looked up): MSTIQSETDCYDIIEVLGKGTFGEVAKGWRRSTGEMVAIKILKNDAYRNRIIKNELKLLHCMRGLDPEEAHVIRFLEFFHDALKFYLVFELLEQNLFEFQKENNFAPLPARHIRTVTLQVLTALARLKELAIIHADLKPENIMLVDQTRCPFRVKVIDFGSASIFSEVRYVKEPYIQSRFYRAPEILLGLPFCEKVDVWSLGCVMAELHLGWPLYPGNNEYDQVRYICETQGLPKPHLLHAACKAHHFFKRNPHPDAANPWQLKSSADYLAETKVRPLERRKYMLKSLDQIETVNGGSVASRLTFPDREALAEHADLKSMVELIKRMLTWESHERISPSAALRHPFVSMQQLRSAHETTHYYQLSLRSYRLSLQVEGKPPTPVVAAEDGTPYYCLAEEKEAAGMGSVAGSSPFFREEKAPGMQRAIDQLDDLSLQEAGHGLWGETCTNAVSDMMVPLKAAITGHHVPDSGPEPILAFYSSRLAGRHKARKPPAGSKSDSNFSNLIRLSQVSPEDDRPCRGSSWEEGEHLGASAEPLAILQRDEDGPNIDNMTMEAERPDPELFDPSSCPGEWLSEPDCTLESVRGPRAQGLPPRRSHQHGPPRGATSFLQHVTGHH
UniProt Q9UL54, sequence (whole entry, looked up): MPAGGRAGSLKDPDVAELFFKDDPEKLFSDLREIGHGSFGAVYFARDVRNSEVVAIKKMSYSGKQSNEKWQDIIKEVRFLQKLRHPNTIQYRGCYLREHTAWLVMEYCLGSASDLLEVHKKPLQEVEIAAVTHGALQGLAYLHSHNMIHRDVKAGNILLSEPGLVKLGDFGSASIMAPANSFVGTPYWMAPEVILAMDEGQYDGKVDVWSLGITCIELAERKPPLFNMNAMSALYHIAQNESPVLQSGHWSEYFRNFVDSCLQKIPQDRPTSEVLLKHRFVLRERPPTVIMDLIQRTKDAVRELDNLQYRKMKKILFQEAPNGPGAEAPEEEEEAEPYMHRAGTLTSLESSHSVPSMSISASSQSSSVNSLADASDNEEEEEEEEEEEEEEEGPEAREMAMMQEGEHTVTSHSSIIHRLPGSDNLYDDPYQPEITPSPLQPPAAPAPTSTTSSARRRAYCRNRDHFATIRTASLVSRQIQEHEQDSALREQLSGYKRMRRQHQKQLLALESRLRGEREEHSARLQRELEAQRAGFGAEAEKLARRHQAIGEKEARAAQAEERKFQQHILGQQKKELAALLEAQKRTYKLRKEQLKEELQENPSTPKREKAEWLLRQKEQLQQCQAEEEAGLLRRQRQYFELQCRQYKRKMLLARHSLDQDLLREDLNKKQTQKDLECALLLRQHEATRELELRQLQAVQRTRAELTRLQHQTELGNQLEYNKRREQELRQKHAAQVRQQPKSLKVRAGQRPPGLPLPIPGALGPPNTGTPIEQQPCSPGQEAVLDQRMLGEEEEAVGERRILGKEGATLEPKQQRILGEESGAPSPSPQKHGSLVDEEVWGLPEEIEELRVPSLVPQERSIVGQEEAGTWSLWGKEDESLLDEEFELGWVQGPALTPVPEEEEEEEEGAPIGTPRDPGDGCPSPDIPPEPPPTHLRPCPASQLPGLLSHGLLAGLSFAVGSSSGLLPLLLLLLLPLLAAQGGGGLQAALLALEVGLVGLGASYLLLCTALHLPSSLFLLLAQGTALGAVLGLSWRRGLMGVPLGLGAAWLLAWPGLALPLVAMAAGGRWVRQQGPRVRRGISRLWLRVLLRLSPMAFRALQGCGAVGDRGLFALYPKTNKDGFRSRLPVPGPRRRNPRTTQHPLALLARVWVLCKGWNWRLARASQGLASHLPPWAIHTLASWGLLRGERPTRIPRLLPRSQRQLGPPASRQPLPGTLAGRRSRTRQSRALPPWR
UniProt P42685, sequence (whole entry, looked up): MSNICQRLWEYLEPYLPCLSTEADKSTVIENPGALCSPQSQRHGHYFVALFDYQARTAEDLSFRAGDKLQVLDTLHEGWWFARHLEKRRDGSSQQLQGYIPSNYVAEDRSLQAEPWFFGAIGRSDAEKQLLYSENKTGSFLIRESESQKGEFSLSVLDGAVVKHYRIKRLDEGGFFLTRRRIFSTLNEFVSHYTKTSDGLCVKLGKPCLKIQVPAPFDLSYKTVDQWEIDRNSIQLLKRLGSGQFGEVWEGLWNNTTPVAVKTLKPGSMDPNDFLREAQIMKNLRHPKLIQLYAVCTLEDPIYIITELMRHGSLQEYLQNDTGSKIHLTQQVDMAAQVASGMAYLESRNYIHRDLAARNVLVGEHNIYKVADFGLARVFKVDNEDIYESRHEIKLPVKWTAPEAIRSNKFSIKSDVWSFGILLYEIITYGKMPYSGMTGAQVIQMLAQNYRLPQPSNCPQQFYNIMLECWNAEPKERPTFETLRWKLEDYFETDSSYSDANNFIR
UniProt Q04912, sequence (whole entry, looked up): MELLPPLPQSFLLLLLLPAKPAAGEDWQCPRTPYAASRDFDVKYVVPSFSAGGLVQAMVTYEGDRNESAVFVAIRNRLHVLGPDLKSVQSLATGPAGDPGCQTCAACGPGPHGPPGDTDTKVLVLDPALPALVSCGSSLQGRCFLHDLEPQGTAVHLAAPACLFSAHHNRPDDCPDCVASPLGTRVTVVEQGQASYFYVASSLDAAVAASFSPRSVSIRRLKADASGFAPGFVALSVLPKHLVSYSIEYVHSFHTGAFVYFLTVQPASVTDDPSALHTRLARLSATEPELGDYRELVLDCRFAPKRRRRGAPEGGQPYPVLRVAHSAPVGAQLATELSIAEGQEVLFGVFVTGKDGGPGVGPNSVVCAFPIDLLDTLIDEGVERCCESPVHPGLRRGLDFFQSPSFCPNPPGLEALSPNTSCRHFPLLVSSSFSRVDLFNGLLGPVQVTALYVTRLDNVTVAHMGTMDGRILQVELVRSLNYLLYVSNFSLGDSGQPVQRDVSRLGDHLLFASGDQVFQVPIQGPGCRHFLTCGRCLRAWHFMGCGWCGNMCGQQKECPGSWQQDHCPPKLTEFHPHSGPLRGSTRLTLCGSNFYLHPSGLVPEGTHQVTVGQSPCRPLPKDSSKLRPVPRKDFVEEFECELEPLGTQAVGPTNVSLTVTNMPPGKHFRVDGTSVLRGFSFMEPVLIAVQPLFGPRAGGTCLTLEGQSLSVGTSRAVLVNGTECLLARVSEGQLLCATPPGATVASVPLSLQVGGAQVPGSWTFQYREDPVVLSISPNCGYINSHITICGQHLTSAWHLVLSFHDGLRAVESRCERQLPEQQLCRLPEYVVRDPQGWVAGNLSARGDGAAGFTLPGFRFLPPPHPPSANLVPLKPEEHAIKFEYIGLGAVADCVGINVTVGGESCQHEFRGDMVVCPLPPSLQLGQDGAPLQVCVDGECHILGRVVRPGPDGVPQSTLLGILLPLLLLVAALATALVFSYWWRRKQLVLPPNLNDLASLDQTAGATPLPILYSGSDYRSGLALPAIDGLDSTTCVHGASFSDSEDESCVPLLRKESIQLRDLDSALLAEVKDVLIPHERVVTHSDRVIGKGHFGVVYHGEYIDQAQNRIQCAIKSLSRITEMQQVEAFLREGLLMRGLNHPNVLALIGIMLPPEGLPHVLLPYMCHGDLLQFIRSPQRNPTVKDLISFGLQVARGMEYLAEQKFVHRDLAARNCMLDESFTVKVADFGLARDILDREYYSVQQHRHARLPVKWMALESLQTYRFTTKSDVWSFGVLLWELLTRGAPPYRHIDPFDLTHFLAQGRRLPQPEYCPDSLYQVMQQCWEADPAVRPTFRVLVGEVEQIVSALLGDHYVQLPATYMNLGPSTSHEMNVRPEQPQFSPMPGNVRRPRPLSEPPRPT
UniProt Q9NY57, sequence (whole entry, looked up): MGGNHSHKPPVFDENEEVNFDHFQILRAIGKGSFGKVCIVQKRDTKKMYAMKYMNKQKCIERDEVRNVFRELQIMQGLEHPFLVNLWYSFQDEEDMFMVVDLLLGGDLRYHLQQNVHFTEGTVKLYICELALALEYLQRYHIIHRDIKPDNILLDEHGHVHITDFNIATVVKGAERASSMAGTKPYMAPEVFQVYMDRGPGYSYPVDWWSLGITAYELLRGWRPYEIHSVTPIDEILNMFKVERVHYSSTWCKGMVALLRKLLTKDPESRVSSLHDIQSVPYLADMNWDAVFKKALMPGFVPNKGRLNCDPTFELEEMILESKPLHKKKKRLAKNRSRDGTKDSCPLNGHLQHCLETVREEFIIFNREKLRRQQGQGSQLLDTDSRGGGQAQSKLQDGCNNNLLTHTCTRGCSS

Sample 1 — Variant: A175F; method: DHFR PCA, deep sequencing; matrix: yeast; relative to: wild-type fitted maximum; reading: higher = stronger binding; quantity: relative binding score
Target: ABI1, truncated, D143A, DHFR fusion (Arabidopsis thaliana)
Setting: methotrexate growth selection, single substitutions
Starting sequence: PYL1, truncated, DHFR fusion (Arabidopsis thaliana); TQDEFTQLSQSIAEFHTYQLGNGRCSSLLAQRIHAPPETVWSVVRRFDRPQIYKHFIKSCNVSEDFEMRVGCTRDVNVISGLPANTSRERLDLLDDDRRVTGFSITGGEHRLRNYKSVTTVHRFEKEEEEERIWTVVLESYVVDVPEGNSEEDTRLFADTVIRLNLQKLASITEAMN; partner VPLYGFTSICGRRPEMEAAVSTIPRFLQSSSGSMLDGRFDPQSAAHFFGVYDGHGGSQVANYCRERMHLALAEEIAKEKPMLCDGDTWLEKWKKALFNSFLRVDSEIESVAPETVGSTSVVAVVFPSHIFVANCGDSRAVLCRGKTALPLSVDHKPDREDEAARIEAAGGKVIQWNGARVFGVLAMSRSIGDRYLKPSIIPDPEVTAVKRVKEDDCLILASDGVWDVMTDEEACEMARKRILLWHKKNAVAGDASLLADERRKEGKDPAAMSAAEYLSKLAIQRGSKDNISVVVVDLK
added: (+)-ABA 0 µM: -8.26%
added: (+)-ABA 58 µM: 69.8%
added: (+)-ABA 0.39 µM: -0.117%
added: (+)-ABA 0.032 µM: -9.85%
added: (+)-ABA 200 µM: 92.4%
added: (+)-ABA 17 µM: 70%

Sample 2 — read-out: enzyme activity; action: inhibitor; concentration: 0.5 µM; relative to: control; quantity: remaining activity
SMILES: C[S+]([O-])c1ccc(-c2nc(-c3ccncc3)c(-c3ccc(F)cc3)[nH]2)cc1 (stereo not drawn)
Casein kinase I isoform gamma-3 (CSNK1G3, Homo sapiens, UniProt Q9Y6M4): 103%
Macrophage-stimulating protein receptor (MST1R, Homo sapiens, UniProt Q04912): 101%
Tyrosine-protein kinase FRK (FRK, Homo sapiens, UniProt P42685): 87.2%
Glycogen synthase kinase-3 beta (GSK3B, Homo sapiens, UniProt P49841): 80.2%
Wee1-like protein kinase (WEE1, Homo sapiens, UniProt P30291): 92.1%
Fibroblast growth factor receptor 3 (FGFR3, Homo sapiens, UniProt P22607): 97%
Ribosomal protein S6 kinase alpha-2 (RPS6KA2, Homo sapiens, UniProt Q15349): 102%
Serine/threonine-protein kinase TAO2 (TAOK2, Homo sapiens, UniProt Q9UL54): 94%
Tyrosine-protein kinase ABL2 (ABL2, Homo sapiens, UniProt P42684): 91.5%
Serine/threonine-protein kinase Nek6 (NEK6, Homo sapiens, UniProt Q9HC98): 103%
Dual specificity mitogen-activated protein kinase kinase 2 (MAP2K2, Homo sapiens, UniProt P36507): 99.9%

Sample 3 — read-out: cell-free assay; method: competition with immobilised ligand; concentration: 1 µM; quantity: remaining binding
SMILES: Cc1cc(NC(=O)c2cccc(S(F)(F)(F)(F)F)c2)cc(-n2ccn3nc(-c4cccnc4)cc23)c1
Homeodomain-interacting protein kinase 4 (HIPK4, Homo sapiens, UniProt Q8NE63): 100%
Serine/threonine-protein kinase PLK4 (PLK4, Homo sapiens, UniProt O00444): 96.9%
Serine/threonine-protein kinase ULK2 (ULK2, Homo sapiens, UniProt Q8IYT8): 73.7%
Cyclin-dependent kinase 18 (CDK18, Homo sapiens, UniProt Q07002): 80.6%
Myosin light chain kinase (MYLK3, Homo sapiens, UniProt Q32MK0): 100%
Protein kinase C epsilon type (PRKCE, Homo sapiens, UniProt Q02156): 91.2%
Leucine-rich repeat serine/threonine-protein kinase 2 (LRRK2, Homo sapiens, UniProt Q5S007): 74.6%
Fibroblast growth factor receptor 3 (FGFR3, Homo sapiens, UniProt P22607): 90.7%
5'-AMP-activated protein kinase catalytic subunit alpha-1 (PRKAA1, Homo sapiens, UniProt Q13131): 100%
Serine/threonine-protein kinase 32B (STK32B, Homo sapiens, UniProt Q9NY57): 100%
Inhibitor of nuclear factor kappa-B kinase subunit beta (IKBKB, Homo sapiens, UniProt O14920): 65.5%
ALK tyrosine kinase receptor (ALK, Homo sapiens, UniProt Q9UM73, L1196M): 100%
Phosphatidylinositol 3-kinase C2 domain-containing subunit gamma (PIK3C2G, Homo sapiens, UniProt O75747): 100%
Ribosomal protein S6 kinase alpha-6, N-terminal kinase domain (RPS6KA6, Homo sapiens, UniProt Q9UK32): 100%

Sample 4 — target: CCNF, cyclin fold, Cln2 fusion (human); method: yeast growth competition, sequencing; matrix: yeast; setting: strong parent motif; relative to: not given; reading: higher = stronger binding; quantity: normalised enrichment score
Starting sequence: PKMYT1 docking peptide (human); SFEPRNLLSLFED; partner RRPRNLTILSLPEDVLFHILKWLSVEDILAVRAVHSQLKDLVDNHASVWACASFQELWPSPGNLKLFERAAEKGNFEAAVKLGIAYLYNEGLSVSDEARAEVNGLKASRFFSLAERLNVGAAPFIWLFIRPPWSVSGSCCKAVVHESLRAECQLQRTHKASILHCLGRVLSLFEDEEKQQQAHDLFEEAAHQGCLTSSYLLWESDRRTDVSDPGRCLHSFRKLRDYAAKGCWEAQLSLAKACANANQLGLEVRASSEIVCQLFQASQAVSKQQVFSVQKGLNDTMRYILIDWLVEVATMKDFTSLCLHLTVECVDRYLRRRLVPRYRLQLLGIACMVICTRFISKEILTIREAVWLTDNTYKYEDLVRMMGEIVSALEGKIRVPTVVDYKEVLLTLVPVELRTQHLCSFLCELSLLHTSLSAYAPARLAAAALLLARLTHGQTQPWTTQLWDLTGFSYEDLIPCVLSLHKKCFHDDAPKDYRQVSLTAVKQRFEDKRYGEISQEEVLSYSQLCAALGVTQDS
N6S: 2.71
S9Y: 1.33
P4Q: -0.0199
E12I: 1.55
P4A: 0.201
E3D: 0.487
E12P: 0.281
D13T: 0.469
